Measurements gathered from unrelated publications.
Each line is one published result; not all experiments were run side by side. Several values in a cell are separate wells, animals, samples, runs or records.
Target: Serine/threonine-protein kinase 25 (STK25, Homo sapiens, UniProt O00506)

SMILES = O=C(Cc1ccc(OCc2ccccc2)cc1)NC1(C(=O)O)CCN(C(=O)c2ccc(-c3cccc(Cl)c3)cc2)CC1; assay = enzyme activity, inhibitor; setting = 10 µM; quantity = activity vs control; value = 101%
SMILES = C=CC(=O)N1CCc2ccc(-n3c(=O)ccc4cnc5ccc(-c6cnn(C)c6)cc5c43)cc21; assay = KINOMEscan; setting = 1 µM; how to read = baseline: DMSO control; quantity = remaining binding; value = 96%
SMILES = C=CC(=O)Nc1cccc(-c2cnc3[nH]cc(C(=O)NC(C)(C)C)c3n2)c1; assay = enzyme activity, inhibitor; setting = 0.1 µM; quantity = inhibition; value = 10%
SMILES = C=CC(=O)N1CCCC(n2c(=O)c3ncccc3n(Cc3ccc(Oc4ccccc4)cc3)c2=O)C1 (stereo not drawn); assay = cell-free assay, competition with immobilised ligand; setting = 1 µM; quantity = remaining binding; value = 100%
SMILES = CCN1CCN(Cc2ccc(C(=O)Nc3ccc(C)c(NCc4cnc5[nH]ccc5c4OC)c3)cc2C(F)(F)F)CC1; assay = binding, competition with immobilised ligand; setting = 1 µM; quantity = remaining binding; value = 67%
SMILES = Nc1ncc(-c2cc(-c3cnn(CC(F)(F)F)c3)ncc2F)nc1C(=O)NC1CNCC(F)C1 (stereo not drawn); assay = enzyme activity; setting = 1 µM; how to read = baseline: DMSO control; quantity = remaining activity; value = 99.1%
SMILES = N[C@H]1CC[C@H](Nc2nccc(-c3cccnc3Oc3ccc(NC(=O)NC4CC4)c4ccccc34)n2)CC1; assay = kinobead competition pulldown; test system = HEK293/HCT116 lysate mixture; setting = 10 µM, 1 h, 4 °C; how to read = lower = stronger competition; quantity = log2 LFQ intensity; value = 21 and 20.4 and 21.4 and 19.9
SMILES = Cc1cccc(O[C@H]2CCC[C@@H](C(C)CNCc3ccncc3)C2)c1 (relative stereo); assay = enzyme activity, inhibitor; setting = 1 µM; quantity = inhibition; value = 0%
SMILES = COc1c(Cl)cccc1Nc1c(-c2ccncc2C#C[C@@]2(C)CCCN2C(=O)/C=C/CN(C)C)[nH]c2c1C(=O)NCC2; assay = binding, competition with immobilised ligand; setting = 3 µM; quantity = remaining binding; value = 87%
SMILES = C=CC(=O)N1Cc2nc(-c3cc(-c4cc(Cl)cnc4Cl)c(F)cc3F)n(-c3ccncn3)c2C1; assay = cell-free assay, inhibitor; setting = 1 µM; quantity = inhibition; value = 0.9%
SMILES = COc1cc(Nc2nc(C)cc(-c3cnn4nc(OC)ccc34)n2)cc(C(F)(F)F)c1; assay = binding, competition with immobilised ligand; setting = 1 µM; quantity = remaining binding; value = 91%
SMILES = C=CC(=O)Nc1cc(-c2nn(C3CCN(CCNC(=O)[C@H](C)CCC45CC6CC(CC(C6)C4)C5)CC3)c3ncnc(N)c23)ccc1Oc1ccccc1; assay = inhibitor, KiNativ profiling; test system = biochemical; setting = 2 µM; quantity = inhibition; value = -67.8%
SMILES = Nc1ncc2c(n1)-c1c([nH]c3ccc(C4=CCOCC4)cc13)CCC2; assay = binding, competition with immobilised ligand; setting = 1 µM; quantity = remaining binding; value = 100%
SMILES = CNC(=O)C[C@H](Cc1ccc(C#N)cc1)NC(=O)c1cc(-c2ccc(CN[C@H](C)c3ccc(C)cc3)o2)ccc1Cl; assay = enzyme activity, inhibitor; setting = 1 µM; quantity = activity vs control; value = 104%
SMILES = NC(=O)[C@@H](O)C[C@H]1CCc2sc3ncnc(O[C@H]4CC[C@H](N5CCOCC5)CC4)c3c21; assay = enzyme activity, inhibitor; setting = 10 µM; quantity = inhibition; value = 8%

Excerpt of the above:
SMILES = O=C(Cc1ccc(OCc2ccccc2)cc1)NC1(C(=O)O)CCN(C(=O)c2ccc(-c3cccc(Cl)c3)cc2)CC1; assay = enzyme activity, inhibitor; setting = 10 µM; quantity = activity vs control; value = 101%
SMILES = CNC(=O)C[C@H](Cc1ccc(C#N)cc1)NC(=O)c1cc(-c2ccc(CN[C@H](C)c3ccc(C)cc3)o2)ccc1Cl; assay = enzyme activity, inhibitor; setting = 1 µM; quantity = activity vs control; value = 104%
